Experimental data gathered from unrelated publications.
Parts stem from different laboratories: compare values within a part only. Several values in a cell are separate wells, animals, samples, runs or records. ± marks the error that the study gave.
Chain of UniProt Q00535 (whole entry, looked up): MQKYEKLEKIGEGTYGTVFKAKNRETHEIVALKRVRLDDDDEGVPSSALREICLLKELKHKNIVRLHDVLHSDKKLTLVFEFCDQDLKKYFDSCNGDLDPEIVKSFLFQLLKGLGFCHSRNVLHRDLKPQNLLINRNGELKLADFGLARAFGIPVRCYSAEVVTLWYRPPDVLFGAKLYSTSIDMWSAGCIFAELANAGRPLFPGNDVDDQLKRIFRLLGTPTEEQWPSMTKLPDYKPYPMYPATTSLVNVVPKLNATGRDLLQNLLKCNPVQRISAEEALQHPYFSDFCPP
Chain of UniProt P31749 (whole entry, looked up): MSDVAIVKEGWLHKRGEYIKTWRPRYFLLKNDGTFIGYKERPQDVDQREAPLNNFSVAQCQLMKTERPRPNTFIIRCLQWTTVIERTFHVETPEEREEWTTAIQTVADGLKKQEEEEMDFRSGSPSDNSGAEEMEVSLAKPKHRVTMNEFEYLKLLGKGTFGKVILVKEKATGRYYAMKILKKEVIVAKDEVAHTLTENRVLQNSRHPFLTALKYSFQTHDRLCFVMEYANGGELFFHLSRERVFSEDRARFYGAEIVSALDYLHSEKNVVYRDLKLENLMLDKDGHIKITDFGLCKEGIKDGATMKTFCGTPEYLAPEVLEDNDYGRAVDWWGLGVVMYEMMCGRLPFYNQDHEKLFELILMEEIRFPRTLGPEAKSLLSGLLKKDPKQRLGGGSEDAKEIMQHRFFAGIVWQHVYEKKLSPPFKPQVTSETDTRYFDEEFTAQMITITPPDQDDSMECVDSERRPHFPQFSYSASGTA
Chain of UniProt P42685 (whole entry, looked up): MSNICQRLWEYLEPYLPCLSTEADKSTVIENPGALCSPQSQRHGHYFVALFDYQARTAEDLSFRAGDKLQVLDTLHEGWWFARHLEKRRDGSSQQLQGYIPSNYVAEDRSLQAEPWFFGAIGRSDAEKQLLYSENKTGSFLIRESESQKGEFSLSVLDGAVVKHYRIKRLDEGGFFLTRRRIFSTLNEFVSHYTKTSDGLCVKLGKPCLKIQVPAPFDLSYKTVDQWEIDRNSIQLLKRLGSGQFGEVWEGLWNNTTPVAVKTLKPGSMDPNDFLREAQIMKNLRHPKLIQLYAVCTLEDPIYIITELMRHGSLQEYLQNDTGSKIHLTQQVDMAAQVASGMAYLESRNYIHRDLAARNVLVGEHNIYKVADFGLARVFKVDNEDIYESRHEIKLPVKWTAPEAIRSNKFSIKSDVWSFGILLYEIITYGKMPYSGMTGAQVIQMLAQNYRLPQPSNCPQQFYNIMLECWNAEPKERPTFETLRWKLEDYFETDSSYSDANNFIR
Chain of UniProt Q9UBF8 (whole entry, looked up): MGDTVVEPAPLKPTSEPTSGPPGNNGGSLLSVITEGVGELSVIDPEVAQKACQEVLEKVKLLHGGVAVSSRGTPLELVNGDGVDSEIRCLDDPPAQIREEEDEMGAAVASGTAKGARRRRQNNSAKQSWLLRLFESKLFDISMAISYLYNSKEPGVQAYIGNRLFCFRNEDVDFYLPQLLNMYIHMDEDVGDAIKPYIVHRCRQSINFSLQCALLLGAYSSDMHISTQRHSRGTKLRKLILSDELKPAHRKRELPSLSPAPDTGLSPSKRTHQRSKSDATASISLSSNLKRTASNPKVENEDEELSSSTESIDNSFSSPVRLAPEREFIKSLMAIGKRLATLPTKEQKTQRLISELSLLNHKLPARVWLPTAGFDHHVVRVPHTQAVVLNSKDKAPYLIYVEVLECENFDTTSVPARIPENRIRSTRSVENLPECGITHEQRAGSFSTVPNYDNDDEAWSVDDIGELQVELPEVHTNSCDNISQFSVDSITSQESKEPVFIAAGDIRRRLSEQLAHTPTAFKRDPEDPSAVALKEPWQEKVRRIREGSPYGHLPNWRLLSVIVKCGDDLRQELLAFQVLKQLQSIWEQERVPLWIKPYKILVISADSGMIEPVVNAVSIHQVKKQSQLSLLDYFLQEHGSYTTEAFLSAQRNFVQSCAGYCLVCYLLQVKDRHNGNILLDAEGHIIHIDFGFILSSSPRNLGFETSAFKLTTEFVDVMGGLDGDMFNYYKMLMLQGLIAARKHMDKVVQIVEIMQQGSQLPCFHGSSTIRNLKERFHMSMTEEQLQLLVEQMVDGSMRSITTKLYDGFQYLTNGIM
Chain of UniProt Q13188 (whole entry, looked up): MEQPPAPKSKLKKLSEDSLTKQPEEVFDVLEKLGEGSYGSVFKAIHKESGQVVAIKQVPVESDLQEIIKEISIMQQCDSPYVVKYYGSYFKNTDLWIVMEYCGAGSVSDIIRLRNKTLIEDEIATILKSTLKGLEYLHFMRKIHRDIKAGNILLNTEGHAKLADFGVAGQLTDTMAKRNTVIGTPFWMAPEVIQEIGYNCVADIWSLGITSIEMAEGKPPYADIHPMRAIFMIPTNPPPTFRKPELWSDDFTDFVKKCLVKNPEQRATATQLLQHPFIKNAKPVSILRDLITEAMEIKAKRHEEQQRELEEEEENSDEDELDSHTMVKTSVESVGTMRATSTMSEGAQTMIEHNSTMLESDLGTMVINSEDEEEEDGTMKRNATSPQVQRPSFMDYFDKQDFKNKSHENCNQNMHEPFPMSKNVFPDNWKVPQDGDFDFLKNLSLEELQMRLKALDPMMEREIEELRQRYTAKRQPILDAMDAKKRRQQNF
Chain of UniProt P27361 (whole entry, looked up): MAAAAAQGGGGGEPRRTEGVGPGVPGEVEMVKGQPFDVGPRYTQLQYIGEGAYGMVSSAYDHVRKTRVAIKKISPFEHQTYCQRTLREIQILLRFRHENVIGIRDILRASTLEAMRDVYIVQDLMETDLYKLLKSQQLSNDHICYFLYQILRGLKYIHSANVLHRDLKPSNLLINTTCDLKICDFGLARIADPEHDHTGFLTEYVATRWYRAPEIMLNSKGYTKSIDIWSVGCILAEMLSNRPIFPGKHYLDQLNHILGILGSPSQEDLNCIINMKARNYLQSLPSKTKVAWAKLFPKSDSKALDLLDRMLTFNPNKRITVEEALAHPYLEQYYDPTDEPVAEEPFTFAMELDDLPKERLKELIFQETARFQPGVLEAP

Series 1
Host: female CD-1 mouse
Matrix: plasma
Route: oral
Dose: 60 mg/kg
| SMILES | Cmax [ng/mL] |
| --- | --- |
| Cc1ccc(O)c(C)c1-c1cnc2[nH]c(-c3cnc(N4CCC(CN5CCN(c6ccc(NC7CCC(=O)NC7=O)cc6F)CC5)CC4)nc3)cc2c1C#N (stereo not drawn) | 3650 |
| Cc1ccc(O)c(C)c1-c1cnc2[nH]c(-c3cnc(N4CCC(CN5CCN(c6cc7c(cc6F)c(N6CCC(=O)NC6=O)nn7C)CC5)CC4)nc3)cc2c1C#N | 1930 |
| Cc1ccc(O)c(C)c1-c1cnc2[nH]c(-c3cnc(N4CCC(CN5CCN(c6ccc7c(c6F)CN(C6CCC(=O)NC6=O)C7=O)CC5)CC4)nc3)cc2c1C#N (stereo not drawn) | 2030 |
| Cc1ccc(O)c(C)c1-c1cnc2[nH]c(-c3cnc(N4CCC5(CC4)CC(N4CCN(c6ccc(NC7CCC(=O)NC7=O)cc6F)CC4)CO5)nc3)cc2c1C#N (stereo not drawn) | 1630 |
| Cc1ccc(O)c(C)c1-c1cnc2[nH]c(-c3cnc(N4CCC(CCN5CCN(c6ccc(NC7CCC(=O)NC7=O)cc6F)CC5)CC4)nc3)cc2c1C#N (stereo not drawn) | 1180 |
| Cc1ccc(O)c(C)c1-c1cnc2[nH]c(-c3cnc(N4CCC(CN5CCN(c6ccc7c(c6)C(=O)N(C6CCC(=O)NC6=O)C7=O)CC5)CC4)nc3)cc2c1C#N (stereo not drawn) | 1140 |

Series 2
Compound: CN(C1COC1)C(C)(C)/C=C(\C#N)C(=O)N1CCC[C@H]1Cn1nc(-c2ccc(Oc3ccccc3)cc2F)c2c(N)ncnc21
Observed: kinase activity
KDR: Vascular endothelial growth factor receptor 2 (KDR, Homo sapiens, UniProt P35968)
Chain of UniProt P35968 (whole entry, looked up): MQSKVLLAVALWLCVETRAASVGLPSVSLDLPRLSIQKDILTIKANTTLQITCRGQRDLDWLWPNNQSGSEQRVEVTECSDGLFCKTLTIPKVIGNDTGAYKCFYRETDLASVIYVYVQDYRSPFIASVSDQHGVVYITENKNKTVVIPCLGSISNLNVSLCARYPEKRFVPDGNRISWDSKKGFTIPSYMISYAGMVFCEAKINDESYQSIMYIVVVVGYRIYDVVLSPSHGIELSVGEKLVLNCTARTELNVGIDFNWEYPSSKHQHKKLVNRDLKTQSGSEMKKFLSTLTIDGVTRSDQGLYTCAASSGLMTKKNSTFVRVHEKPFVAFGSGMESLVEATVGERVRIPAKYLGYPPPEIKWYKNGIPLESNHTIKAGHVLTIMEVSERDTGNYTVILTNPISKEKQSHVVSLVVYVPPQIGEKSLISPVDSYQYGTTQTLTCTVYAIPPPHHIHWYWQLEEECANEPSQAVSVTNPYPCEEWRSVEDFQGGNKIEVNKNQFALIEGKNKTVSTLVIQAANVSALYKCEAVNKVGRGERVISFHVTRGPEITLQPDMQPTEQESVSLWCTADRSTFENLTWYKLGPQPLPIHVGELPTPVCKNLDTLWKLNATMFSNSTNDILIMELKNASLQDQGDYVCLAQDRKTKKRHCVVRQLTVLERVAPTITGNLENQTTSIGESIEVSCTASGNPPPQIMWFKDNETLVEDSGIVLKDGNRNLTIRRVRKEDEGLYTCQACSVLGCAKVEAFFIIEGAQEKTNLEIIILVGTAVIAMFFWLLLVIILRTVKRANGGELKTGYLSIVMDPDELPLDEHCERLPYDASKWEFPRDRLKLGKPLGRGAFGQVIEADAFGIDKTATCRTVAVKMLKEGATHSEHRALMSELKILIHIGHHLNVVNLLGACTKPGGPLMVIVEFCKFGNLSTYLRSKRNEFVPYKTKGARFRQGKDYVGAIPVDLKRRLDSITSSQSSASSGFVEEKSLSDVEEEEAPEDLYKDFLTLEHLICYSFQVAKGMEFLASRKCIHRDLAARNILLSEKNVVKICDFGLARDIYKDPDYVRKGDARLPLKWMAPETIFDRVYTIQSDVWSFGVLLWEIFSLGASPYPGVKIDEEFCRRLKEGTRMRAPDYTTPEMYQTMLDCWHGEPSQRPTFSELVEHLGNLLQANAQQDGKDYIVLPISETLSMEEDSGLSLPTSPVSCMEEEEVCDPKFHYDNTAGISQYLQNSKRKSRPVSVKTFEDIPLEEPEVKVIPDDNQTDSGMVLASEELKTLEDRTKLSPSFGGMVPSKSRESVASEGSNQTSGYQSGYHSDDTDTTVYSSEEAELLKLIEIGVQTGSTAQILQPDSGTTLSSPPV
| target | concentration | inhibition |
| --- | --- | --- |
| PI4KB (Homo sapiens, UniProt Q9UBF8) | 0.1 µM | 6% |
| MAPK10 (Homo sapiens, UniProt P53779) | 0.1 µM | 4% |
| PRKAA2 (Homo sapiens, UniProt P54646) | 1 µM | -7% |
| PRKG2 (Homo sapiens, UniProt Q13237) | 1 µM | -7% |
| NTRK3 (Homo sapiens, UniProt Q16288) | 0.1 µM | 3% |
| TBK1 (Homo sapiens, UniProt Q9UHD2) | 1 µM | 0% |
| MAPK9 (Homo sapiens, UniProt P45984) | 1 µM | -15% |
| KDR | 0.1 µM | -1% |
| Cyclin-dependent kinase 6, with cyclin D3 (CDK6, Homo sapiens, UniProt Q00534) | 0.1 µM | 6% |
| AKT1 (Homo sapiens, UniProt P31749) | 1 µM | 0% |
| HIPK2 (Homo sapiens, UniProt Q9H2X6) | 1 µM | 2% |
| CHEK1 (Homo sapiens, UniProt O14757) | 0.1 µM | 0% |
| STK3 (Homo sapiens, UniProt Q13188) | 0.1 µM | 3% |
| Cyclin-dependent kinase 5, with p25 (CDK5, Homo sapiens, UniProt Q00535) | 1 µM | -1% |
| CSNK1G1 (Homo sapiens, UniProt Q9HCP0) | 1 µM | 10% |
| SYK (Homo sapiens, UniProt P43405) | 0.1 µM | -2% |
| FRK (Homo sapiens, UniProt P42685) | 0.1 µM | 2% |
| MAPK3 (Homo sapiens, UniProt P27361) | 0.1 µM | -3% |
| TSSK1B (Homo sapiens, UniProt Q9BXA7) | 0.1 µM | 4% |
| TTK (Homo sapiens, UniProt P33981) | 0.1 µM | -5% |
| KDR | 1 µM | 2% |

Series 3
Target: Sodium-dependent neutral amino acid transporter B(0)AT1 (SLC6A19, Homo sapiens, UniProt Q695T7)
Chain of UniProt Q695T7 (whole entry, looked up): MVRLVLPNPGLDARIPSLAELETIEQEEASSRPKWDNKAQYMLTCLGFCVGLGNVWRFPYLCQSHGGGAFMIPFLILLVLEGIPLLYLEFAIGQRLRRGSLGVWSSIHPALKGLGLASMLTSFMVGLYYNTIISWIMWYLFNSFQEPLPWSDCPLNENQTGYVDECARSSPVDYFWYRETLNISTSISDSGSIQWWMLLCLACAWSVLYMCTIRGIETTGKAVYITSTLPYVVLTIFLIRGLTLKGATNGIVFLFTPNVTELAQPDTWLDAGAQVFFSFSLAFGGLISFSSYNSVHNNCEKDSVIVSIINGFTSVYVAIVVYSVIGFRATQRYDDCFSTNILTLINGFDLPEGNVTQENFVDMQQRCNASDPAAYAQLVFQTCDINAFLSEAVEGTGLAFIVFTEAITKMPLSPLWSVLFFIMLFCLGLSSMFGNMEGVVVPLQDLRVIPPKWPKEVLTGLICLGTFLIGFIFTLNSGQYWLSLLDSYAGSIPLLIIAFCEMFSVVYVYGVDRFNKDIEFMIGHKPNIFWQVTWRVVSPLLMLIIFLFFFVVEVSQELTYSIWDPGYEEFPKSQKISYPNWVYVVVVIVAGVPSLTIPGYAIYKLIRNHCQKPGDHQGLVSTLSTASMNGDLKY
Action: inhibitor
Method: L-[14C]leucine uptake
Cells: CHO-BC cells
With: L-leucine 150 µM
| SMILES | IC50 [µM] |
| --- | --- |
| CC(C)NC(=O)COc1ccc(I)cc1 | 6 ± 0.6 |
| Cc1cc(OCC(=O)NC(C)C)ccc1I | 0.7 ± 0.1 |
| CCNC(=O)COc1cc(C)c(Cl)c(C)c1 | 3 ± 0.4 |
| CC(C)NC(=O)COc1ccc2ccccc2c1 | 2 ± 0.4 |
| CNC(=O)COc1cc(C)c(Cl)c(C)c1 | 20 ± 10 |
| CC(C)NC(=O)COc1ccc(Cl)cc1 | 37 ± 33 |
| Cc1cc(NCC(=O)NC(C)C)cc(C)c1Br | 0.9 ± 0.2 |
| Cc1cc(OCC(=O)NC(C)C)ccc1Cl | 2 ± 0.3 |
| Cc1cc(NCC(=O)NC(C)C)cc(C)c1Cl | 1.2 ± 0.1 |

Series 4
SMILES: Cc1ncsc1-c1ccc(C(CO)NC(=O)C2CC(O)CN2C(=O)C(NC(=O)c2ccc(COc3c(-c4c(C)c(F)cc5[nH]ncc45)c(C4CC4)cc4c(N5CC6CC5CN6)nc(OC5CCOCC5)nc34)cc2)C(C)C)cc1 (stereo not drawn)
Cell line: AsPC-1
Method: in-cell ELISA
| concentration | setting | phospho-ERK1/2 level |
| --- | --- | --- |
| 300 pM | individual replicates | 93.3% and 97.6% and 94.8% and 92.3% and 95.9% |
| 100 nM | individual replicates | 37.1% and 34.1% and 29.6% and 50.2% and 32.7% and 56.6% |
| 10 nM | per-experiment values | 93.7% and 87.1% and 94% |
| 10 µM | individual replicates | 12% and 9.67% and 4.58% and 25.4% and 12.4% and 7.44% |
| 1 nM | per-experiment values | 96.3% and 98.1% and 90.2% |
| 3 nM | individual replicates | 85.2% and 97.9% and 104% and 89.4% and 98.2% and 96.2% |
| 1 µM | individual replicates | 4.89% and 5.62% and 4.53% and 10.7% and 2.71% |
| 30 nM | individual replicates | 79.1% and 72.7% and 84.4% and 81% and 88% and 84.3% |

Mixed results
| Structure (SMILES) | test | system | conditions | how to read | endpoint | result |
| --- | --- | --- | --- | --- | --- | --- |
| Cc1nc(C)c(C=[N+]([O-])C(C)(C)C)nc1C | MTT | primary midbrain neurons, Sprague-Dawley rat | 100 µM, 2 h pretreatment, with: 20 µM MPP+ for 24 h | reference: untreated control | viability | 69.1% |
